Results pooled from the literature.
Parts stem from different laboratories: compare values within a part only. “And” joins repeats or separate records; there may be more than shown.
UniProt P07949, sequence (whole entry, unmodified, looked up): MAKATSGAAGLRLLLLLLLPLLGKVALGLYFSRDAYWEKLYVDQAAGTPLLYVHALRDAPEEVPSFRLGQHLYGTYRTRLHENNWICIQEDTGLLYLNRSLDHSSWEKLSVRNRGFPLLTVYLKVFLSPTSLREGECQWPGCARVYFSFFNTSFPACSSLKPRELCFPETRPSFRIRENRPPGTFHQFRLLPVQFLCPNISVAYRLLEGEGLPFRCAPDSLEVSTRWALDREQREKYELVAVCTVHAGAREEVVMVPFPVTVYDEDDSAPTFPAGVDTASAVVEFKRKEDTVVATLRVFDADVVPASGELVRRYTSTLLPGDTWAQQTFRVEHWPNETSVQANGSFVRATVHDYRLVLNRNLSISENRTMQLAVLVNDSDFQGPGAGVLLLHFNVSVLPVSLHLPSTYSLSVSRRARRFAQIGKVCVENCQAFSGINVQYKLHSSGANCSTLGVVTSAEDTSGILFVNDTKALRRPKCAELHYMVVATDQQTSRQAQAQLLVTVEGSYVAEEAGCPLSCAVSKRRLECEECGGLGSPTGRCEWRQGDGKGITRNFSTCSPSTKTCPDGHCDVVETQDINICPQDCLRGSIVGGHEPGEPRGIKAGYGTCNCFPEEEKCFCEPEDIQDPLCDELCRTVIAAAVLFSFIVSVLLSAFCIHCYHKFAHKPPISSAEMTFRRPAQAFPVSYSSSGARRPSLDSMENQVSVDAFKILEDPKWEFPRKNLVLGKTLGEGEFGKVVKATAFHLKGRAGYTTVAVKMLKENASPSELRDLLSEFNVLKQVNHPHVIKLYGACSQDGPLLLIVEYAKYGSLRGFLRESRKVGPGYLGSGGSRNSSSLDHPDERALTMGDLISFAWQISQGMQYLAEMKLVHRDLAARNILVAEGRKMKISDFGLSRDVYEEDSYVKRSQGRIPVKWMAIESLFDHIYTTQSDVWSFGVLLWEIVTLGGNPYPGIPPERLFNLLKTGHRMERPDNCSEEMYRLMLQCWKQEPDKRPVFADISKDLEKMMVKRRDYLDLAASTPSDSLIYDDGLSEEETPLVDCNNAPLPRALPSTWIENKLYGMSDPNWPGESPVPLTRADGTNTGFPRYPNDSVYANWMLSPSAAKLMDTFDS
UniProt P15056, sequence (whole entry, unmodified, looked up): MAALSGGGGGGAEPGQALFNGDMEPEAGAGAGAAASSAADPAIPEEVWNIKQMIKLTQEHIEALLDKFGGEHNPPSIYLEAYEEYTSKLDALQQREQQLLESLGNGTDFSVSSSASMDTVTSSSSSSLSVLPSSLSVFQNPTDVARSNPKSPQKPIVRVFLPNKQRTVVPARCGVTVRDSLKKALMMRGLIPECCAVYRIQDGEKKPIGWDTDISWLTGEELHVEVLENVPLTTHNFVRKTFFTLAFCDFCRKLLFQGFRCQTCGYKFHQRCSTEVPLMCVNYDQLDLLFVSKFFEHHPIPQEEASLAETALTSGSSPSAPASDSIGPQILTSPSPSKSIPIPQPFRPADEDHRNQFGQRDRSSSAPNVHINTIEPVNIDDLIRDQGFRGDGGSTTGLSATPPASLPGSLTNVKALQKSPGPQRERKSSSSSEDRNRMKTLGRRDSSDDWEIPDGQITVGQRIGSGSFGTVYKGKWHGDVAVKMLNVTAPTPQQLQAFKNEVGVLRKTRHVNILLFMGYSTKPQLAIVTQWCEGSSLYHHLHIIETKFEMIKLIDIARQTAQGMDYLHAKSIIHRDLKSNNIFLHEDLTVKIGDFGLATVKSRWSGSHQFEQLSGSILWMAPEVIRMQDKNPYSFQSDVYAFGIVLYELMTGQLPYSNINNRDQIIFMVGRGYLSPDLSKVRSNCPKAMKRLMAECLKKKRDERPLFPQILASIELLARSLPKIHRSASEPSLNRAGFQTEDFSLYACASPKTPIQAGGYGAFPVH
UniProt Q13882, sequence (whole entry, looked up): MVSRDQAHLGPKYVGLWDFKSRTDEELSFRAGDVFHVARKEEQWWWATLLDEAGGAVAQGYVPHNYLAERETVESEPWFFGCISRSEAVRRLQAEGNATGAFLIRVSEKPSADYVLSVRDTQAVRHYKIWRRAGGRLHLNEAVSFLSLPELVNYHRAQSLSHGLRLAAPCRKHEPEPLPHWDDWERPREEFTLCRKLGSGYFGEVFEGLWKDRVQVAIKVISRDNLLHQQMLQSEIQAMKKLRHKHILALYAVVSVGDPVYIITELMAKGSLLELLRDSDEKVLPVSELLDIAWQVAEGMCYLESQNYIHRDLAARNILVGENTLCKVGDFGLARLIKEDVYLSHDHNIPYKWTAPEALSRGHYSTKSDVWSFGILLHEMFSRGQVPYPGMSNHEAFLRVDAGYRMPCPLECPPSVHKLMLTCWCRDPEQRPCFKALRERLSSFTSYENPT

Study 1 — organism: Sarcocystis neurona; read-out: parasite growth; concentration: 10 µM; time: 96 h; notes: first screen; measurement: inhibition
CC(C)C[C@H](NC(=O)[C@@H](O)[C@H](N)Cc1ccccc1)C(=O)O: 11.3%
CNNCc1ccc(C(=O)NC(C)C)cc1: 0.379%
O=C(CCNNC(=O)c1ccncc1)NCc1ccccc1: -5.1%
Cc1ncc([N+](=O)[O-])n1CC(O)CCl (stereo not shown): -1.8%
CN(C)[C@@H]1C(O)=C(C(N)=O)C(=O)[C@@]2(O)C(O)=C3C(=O)c4c(O)cccc4[C@@](C)(O)[C@H]3C[C@@H]12: 29.4%
NCC(=O)CCC(=O)O: -17%
CNCCCN1c2ccccc2CCc2ccccc21: -1.7%
Nc1nc(N)nc(-c2cc(Cl)ccc2Cl)n1: -24.3%

Study 2 — action: inhibitor; concentration: 5 µM; measurement: log2 fold change
SMILES: COc1cc(C(=O)N2CCC(N3CCN(C)CC3)CC2)ccc1Nc1ncc2c(n1)N(C)c1ccccc1C(=O)N2C
BRAF (Homo sapiens, UniProt P15056, G469A); cell-based kinome profiling; human cells; reference: vehicle control: 0.044
NPR2 (Homo sapiens, UniProt P20594); cell-based kinome screen; human cells; reference: untreated control: 0.03 log2
kinase–CDC37 interaction; kinase–CDC37 binding; human cells; oncogenic ETV6-SYK fusion; reference: vehicle: -0.03
kinase–CDC37 interaction; kinase–CDC37 binding; human cells; oncogenic ETV6-FLT3 fusion; reference: vehicle: 0.256
RET (Homo sapiens, UniProt P07949); human cells; cell-based kinome screen; reference: vehicle: -0.176 and -0.151
DYRK2 (Homo sapiens, UniProt Q92630); human cells; reference: vehicle: 0.042
ALK (Homo sapiens, UniProt Q9UM73, F1174L); cell-based kinome profiling; human cells; reference: vehicle control: -0.269
Aurora kinase C (AURKC, Homo sapiens, UniProt Q9UQB9); cell-based kinome profiling; human cells; reference: vehicle control: 0.051
LIM domain kinase 1 (LIMK1, Homo sapiens, UniProt P53667); cell-based kinome screen; human cells; reference: untreated control: 0.01 log2

Study 3 — read-out: enzyme activity; action: inhibitor; concentration: 77 µM; reference: untreated; measurement: remaining activity
Target: DNA polymerase theta, ATPase domain (POLQ, Homo sapiens, UniProt O75417)
UniProt O75417, sequence (whole entry, unmodified, looked up): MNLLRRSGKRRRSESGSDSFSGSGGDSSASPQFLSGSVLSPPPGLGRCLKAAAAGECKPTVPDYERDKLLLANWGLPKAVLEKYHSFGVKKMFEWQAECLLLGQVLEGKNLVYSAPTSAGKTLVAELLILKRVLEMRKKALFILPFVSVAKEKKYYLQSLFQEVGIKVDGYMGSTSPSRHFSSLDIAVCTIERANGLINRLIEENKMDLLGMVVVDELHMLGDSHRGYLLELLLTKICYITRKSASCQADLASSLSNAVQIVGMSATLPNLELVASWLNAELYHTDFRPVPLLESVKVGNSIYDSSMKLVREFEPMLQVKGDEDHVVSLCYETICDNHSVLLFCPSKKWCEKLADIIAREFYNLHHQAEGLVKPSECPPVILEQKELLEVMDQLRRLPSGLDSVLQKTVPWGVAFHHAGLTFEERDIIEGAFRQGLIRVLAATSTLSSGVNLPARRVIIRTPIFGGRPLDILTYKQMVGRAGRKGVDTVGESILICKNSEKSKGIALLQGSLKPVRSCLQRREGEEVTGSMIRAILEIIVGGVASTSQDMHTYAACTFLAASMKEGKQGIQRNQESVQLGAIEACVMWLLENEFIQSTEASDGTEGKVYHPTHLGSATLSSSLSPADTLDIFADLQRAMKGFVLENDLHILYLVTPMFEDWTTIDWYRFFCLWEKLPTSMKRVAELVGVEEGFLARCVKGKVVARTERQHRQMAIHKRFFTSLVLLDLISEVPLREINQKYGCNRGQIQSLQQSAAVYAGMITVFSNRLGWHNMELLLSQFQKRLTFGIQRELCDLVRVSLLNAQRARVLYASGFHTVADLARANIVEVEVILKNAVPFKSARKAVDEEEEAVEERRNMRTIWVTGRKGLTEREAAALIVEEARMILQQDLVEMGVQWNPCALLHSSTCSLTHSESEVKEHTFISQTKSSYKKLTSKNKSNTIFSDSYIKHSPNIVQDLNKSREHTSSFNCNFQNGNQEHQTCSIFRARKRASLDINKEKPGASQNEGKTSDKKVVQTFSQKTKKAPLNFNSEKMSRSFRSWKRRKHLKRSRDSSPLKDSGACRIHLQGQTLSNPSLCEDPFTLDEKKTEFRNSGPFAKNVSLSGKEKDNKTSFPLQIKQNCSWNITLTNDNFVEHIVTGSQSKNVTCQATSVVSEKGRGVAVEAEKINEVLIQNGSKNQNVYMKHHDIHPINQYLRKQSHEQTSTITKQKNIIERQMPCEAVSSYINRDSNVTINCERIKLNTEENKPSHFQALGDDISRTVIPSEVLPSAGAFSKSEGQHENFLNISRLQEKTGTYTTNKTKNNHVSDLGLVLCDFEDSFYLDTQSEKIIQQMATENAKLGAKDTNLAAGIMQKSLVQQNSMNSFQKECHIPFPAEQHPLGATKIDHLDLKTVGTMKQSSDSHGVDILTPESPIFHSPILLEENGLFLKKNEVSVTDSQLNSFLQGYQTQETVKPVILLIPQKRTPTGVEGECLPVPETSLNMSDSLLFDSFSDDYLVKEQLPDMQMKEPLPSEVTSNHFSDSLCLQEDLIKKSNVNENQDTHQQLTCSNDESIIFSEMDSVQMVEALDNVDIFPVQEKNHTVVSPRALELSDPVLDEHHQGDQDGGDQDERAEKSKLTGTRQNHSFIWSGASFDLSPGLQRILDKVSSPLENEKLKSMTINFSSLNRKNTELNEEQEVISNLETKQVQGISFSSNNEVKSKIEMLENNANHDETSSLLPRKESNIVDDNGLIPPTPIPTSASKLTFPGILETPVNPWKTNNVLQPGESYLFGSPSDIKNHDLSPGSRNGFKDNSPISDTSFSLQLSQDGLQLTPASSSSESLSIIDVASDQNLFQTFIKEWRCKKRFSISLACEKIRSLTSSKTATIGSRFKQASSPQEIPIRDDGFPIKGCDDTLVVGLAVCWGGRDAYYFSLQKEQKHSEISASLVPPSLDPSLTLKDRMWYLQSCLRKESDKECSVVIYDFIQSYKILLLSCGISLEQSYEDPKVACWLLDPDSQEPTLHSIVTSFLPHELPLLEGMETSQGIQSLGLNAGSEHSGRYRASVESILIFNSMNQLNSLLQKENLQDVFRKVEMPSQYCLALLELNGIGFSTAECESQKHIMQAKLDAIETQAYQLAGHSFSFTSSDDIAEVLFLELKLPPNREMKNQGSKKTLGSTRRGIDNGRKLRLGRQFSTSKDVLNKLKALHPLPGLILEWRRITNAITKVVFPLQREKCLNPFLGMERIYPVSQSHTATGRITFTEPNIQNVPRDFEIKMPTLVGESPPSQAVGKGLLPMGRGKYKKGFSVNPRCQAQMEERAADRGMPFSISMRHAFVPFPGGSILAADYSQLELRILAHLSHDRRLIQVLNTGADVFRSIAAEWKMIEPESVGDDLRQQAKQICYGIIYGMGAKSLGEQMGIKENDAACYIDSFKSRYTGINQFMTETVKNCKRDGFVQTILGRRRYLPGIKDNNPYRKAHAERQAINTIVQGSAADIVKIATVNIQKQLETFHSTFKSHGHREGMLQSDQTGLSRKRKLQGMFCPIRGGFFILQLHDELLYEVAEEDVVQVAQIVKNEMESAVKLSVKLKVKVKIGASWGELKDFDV
O=C(O)CCC(=O)c1ccc(-c2ccccc2)cc1: 90.4%
NC(=O)c1ccc(-c2nc(-c3ccccn3)c(-c3ccc4c(c3)OCO4)[nH]2)cc1: 93.3%
CN=c1nc(-c2ccccc2)n(-c2ccccc2)s1: 100%
CCN(CC)CCOc1ccc(Nc2ncc3cc(-c4c(Cl)cccc4Cl)c(=O)n(C)c3n2)cc1: 110%
CCOC(=O)C1=C[C@]2(CC)CCCN3CCc4c(n1c1ccccc41)[C@@H]32: 103% and 98.4%
Nc1nc2ccc(Cl)cc2n2c(-c3ccccc3)nnc12: 98%
Clc1ccc(CCC(Cn2ccnc2)Sc2c(Cl)cccc2Cl)cc1 (stereo not shown): 78.4% and 98.1%
c1coc(CNc2ncnc3nc[nH]c23)c1: 108%
O=c1cc(-c2ccc(O)c(O)c2)oc2cc(O)cc(O)c12: 99.2%
O=C(NCCO[N+](=O)[O-])c1cccnc1: 96.3%
CCOC(=O)[C@H](CCc1ccccc1)N[C@@H](C)C(=O)N1[C@H](C(=O)O)C[C@H]2CCCC[C@@H]21: 101%
Cn1cc(/C=C2\C(=O)Nc3ccc(S(N)(=O)=O)cc32)c2ccccc21: 109%

Study 4 — read-out: cell-free assay; technique: competition with immobilised ligand; concentration: 1 µM; measurement: remaining binding
Structure (SMILES): CC(=O)Nc1c(C(C)=O)c(=O)n(C)c2nc(-c3ccc(Cl)cc3Cl)c(-c3ccc(Cl)cc3)cc12
ACVR2B (Homo sapiens, UniProt Q13705): 100%
EPHB6 (Homo sapiens, UniProt O15197): 100%
ALK (Homo sapiens, UniProt Q9UM73): 100%
GRK2 (Homo sapiens, UniProt P25098): 84%
CDK11B (Homo sapiens, UniProt P21127): 83%
PRPF4B (Homo sapiens, UniProt Q13523): 100%
BRAF (Homo sapiens, UniProt P15056, V600E): 100%
PIK3CA (Homo sapiens, UniProt P42336, H1047L): 95%
FES (Homo sapiens, UniProt P07332): 100%
PTK6 (Homo sapiens, UniProt Q13882): 100%
MATK (Homo sapiens, UniProt P42679): 100%
CDK9 (Homo sapiens, UniProt P50750): 100%
MAP4K1 (Homo sapiens, UniProt Q92918): 91%
PNCK (Homo sapiens, UniProt Q6P2M8): 100%
PI4KB (Homo sapiens, UniProt Q9UBF8): 100%
RET (Homo sapiens, UniProt P07949, V804M): 100%
CDK5 (Homo sapiens, UniProt Q00535): 100%

Some of these lines once more (study 4):
EPHB6 (Homo sapiens, UniProt O15197): 100%
ALK (Homo sapiens, UniProt Q9UM73): 100%
GRK2 (Homo sapiens, UniProt P25098): 84%
CDK11B (Homo sapiens, UniProt P21127): 83%
PRPF4B (Homo sapiens, UniProt Q13523): 100%
BRAF (Homo sapiens, UniProt P15056, V600E): 100%
PIK3CA (Homo sapiens, UniProt P42336, H1047L): 95%
FES (Homo sapiens, UniProt P07332): 100%
